Assay results of several laboratories.
Each numbered part is a random draw from the data of one study; scales do not carry over between parts. Changes are numbered by the printed parent chain.

Block 1 — target: CREBZF, bZIP domain (human); method: DHFR protein complementation; sample: yeast; baseline: wild-type JUN-FOS pair; direction: higher = stronger binding
Notes: single substitutions, most at no-binding floor
Starting sequence: JUN, bZIP domain (human); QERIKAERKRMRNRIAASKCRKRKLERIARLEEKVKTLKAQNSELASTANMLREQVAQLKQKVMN; partner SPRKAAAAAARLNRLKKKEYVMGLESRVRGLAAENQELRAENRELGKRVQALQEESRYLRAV
`L45K` has a binding fitness of -1.43 natural log.
With `L52N` the binding fitness was -1.52 natural log.
`S47W` has a binding fitness of -1.47 natural log.
`A40S` gave a binding fitness of -1.49 natural log.
`L52C` has a binding fitness of -1.46 natural log.
For `M51K`, the binding fitness was -1.49 natural log.
For `E54T`, the binding fitness was -1.5 natural log.
The binding fitness of `A57R` is reported as -1.35 natural log.
`M51W` gave a binding fitness of -1.36 natural log.
`Q55Y` gave a binding fitness of -1.52 natural log.
With `T48H` the binding fitness was -1.49 natural log.
The binding fitness of `I28E` is reported as -1.52 natural log.

Block 2 — method: protein binding microarray; molecule type: double-stranded DNA, one strand shown; sample: in vitro; tested at: not given; baseline: not given; direction: higher = stronger binding
Target: Histone acetyltransferase KAT6A, winged helix 1, GST fusion (KAT6A, Homo sapiens, UniProt Q92794, residues 1-85)
Notes: 8-mer, flanks averaged, mean of 2 arrays, mostly near background
Residues (chain): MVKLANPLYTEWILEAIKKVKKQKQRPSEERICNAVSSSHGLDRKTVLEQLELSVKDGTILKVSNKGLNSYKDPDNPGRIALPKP
With `TCGTACCA` the E-score was -0.0536.
The E-score of `TACTAGGA` is reported as -0.196.
For `CTAATGGC`, the E-score was -0.13.
With `ATAACGCA` the E-score was -0.00456.
`CCTACTGC` has an E-score of -0.129.
`CTACGTAG` gave an E-score of 0.032.
For `ACCTGGTG`, the E-score was -0.0597.
`AGCCAACC` has an E-score of -0.0285.
`GGAACCAA` has an E-score of -0.0832.
`AAGGGGCA` gave an E-score of -0.107.
`AGCAACCA` gave an E-score of -0.24.
The E-score of `TGACTACA` is reported as -0.147.
`CGGCAAAA` has an E-score of 0.245.
With `ATTCGCTC` the E-score was -0.0706.
For `ATCGTCGC`, the E-score was 0.0762.
For `GCCTATAC`, the E-score was -0.0233.
For `CCTTACCG`, the E-score was 0.095.
The E-score of `CTTCACCC` is reported as 0.117.
The E-score of `AAGCTTAT` is reported as -0.0464.
`AGCTCCGA` has an E-score of -0.00766.

Block 3 — target: CCND1, cyclin fold, Cln2 fusion (human); method: yeast growth competition, sequencing; sample: yeast; notes: strong parent motif; baseline: not given; direction: higher = stronger binding
Starting sequence: PKN2 docking peptide (human); VSAVQKLDFSDTM; partner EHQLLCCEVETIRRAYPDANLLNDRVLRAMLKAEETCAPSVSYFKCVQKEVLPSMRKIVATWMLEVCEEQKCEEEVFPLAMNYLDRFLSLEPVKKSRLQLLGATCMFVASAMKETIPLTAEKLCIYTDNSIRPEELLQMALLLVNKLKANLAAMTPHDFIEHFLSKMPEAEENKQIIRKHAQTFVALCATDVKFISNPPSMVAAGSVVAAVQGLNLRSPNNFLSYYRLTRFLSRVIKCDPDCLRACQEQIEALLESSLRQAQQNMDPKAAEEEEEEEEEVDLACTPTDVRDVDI
For `F9G`, “normalised enrichment score” read 0.255.
`F9R` — result for “normalised enrichment score”: 0.37.
Under “normalised enrichment score”, `D8K` is recorded as 0.706.
For `D11C`, “normalised enrichment score” read 2.03.
`Q5A L7A` — result for “normalised enrichment score”: 0.1.
`L7K`: “normalised enrichment score” -0.31.
For `F9V`, “normalised enrichment score” read -0.122.
For `Q5R`, “normalised enrichment score” read 5.21.
For `K6F`, “normalised enrichment score” read 1.51.
`D8P` — result for “normalised enrichment score”: 0.715.
Under “normalised enrichment score”, `T12K` is recorded as 1.46.
For `S10E`, “normalised enrichment score” read 2.67.
`V1G` — result for “normalised enrichment score”: 1.7.
Under “normalised enrichment score”, `K6A` is recorded as 1.18.
Under “normalised enrichment score”, `L7V` is recorded as 0.0637.
Under “normalised enrichment score”, `T12E` is recorded as 2.79.
For `S2N`, “normalised enrichment score” read 1.76.
`M13Y`: “normalised enrichment score” 2.04.

Block 4 — method: RNA Bind-n-Seq; molecule type: RNA; sample: in vitro; tested at: 365 nM; baseline: no-protein control; direction: higher = stronger binding
Target: RNA binding protein fox-1 homolog 2, RRM domain, GST-SBP tag (RBFOX2, Homo sapiens, UniProt O43251-10, residues 100-194)
Notes: natural RNA segment, single round, ends assumed
Shared flanks, not repeated: GGGAGUUCUACAGUCCGACGAUC … UGGAAUUCUCGGGUGCCAA
Construct (chain): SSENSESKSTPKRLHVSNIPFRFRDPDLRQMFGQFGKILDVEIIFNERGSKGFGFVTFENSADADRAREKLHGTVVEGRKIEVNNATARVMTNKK
`UUUUGAUCUGUAAUUUCUUCUCUAAAACUGCUGCAUCUGGUACAGUAGACUGUGGAAGGUGUUGAUUAUGUUUCCUCUGGGGCCUGGUAGGAUGCUAAUCCCUAGAGCAG` — result for “RBNS enrichment (R)”: 0.734.
Under “RBNS enrichment (R)”, `UAUUACUCAUUAACCAGAUAACAAGUGAAUAUGCUGUAGCAUCAACAUAAUUCAAAAGAGUAAAGAAAUGGCUAGGAAUGAGGUAGUUGUGUAAUUAUUUCUUCUCUUAC` is recorded as 0.372.
Under “RBNS enrichment (R)”, `AGAAAGAUUUUUUUUUAAGUAAACACCUUUCAAUCCCCAACACAAGCUGCUUCACAACUCCAGGCUAGAAGGCAGGAGAGCGAUCUGAUGUGUUUCUUUCAUUUGCCAGA` is recorded as 0.517.
Under “RBNS enrichment (R)”, `CCCCUCCCCUUAGCUUUGACUUAGGAAGCCAAGUUUUCUGCAUCAGAUUAUUGCAACAUUUAACCUGAAUUUGUAGAACGGAUGACAUAAAGCAAAUGGAUGUCAAAUGA` is recorded as 0.828.
`CAGAACCAGAGGCUUGGUCCCACAGGCCACGGACCAAUGGCCUGCAGCCGUGACAACACUCCUGUCAUAUUGGAGUCCAAAACUUGAAUUCUGGGUUGAAUUUUUUAAAA` — result for “RBNS enrichment (R)”: 0.281.
Under “RBNS enrichment (R)”, `GACUGUGUGGGGCUCAGCAUUGGGAGGGGUUGCACAUGUCCCAGCCUUUGGCCCCCUUACUUUUCAGCAAGCCAGGGGCCCAGCAGUCAGCUCCCAGGAUGUGUGGGGAG` is recorded as 2.73.
`AGCCCAGUCUUCCUUAGUCUCUGGACCUAGAAGGGACCAUUGGAGAAGCAGGCUCUGCUUCUCUGUUGUUCCUGGUGGCUGGGCCUUAGCAGGGGUCUUUGCUCUUGAAG` — result for “RBNS enrichment (R)”: 0.246.
Under “RBNS enrichment (R)”, `CUUCCCUCCCUUUACUUCUGUUGCCUUGUGUAUAAAACUGCCCCCAGCUUGCCUAGAGACGUUGCCUUCAUCAGAGAAGACUCCAUUAAUUCAGUGUCCCAAUGGUGUCC` is recorded as 1.79.
Under “RBNS enrichment (R)”, `CAUAGUCAUUCCAGUGGAGAGUGGAAGUAACCUCAUGGUGAUUUUUAACCCUAAUUUCUCUCUGACCCUAAAGGAGCUGCUGGCCCUAGAAGGUUGGGAUCAAUCUUGUC` is recorded as 0.342.
`ACAAAUUGUCUUAUAUAUGAAGCCAUAGAUUAAAUUAUGCUUUAUUCUUAAUGGCAUCUAAGCUAUUAUACAGACUUACUAACACUGUCAGAAAACAAAAAAACAGGUCC` — result for “RBNS enrichment (R)”: 0.328.
For `GAUAAGAAUAUUGCCUGGUUAAAAUUCUGCAUUGCUUAAAGACACCCAUGUUUAAGAUUUUUCAUCACUAACAUAUCCAUUAAAAGUAUCAACUGGCCAGGCAGGGUGGC`, “RBNS enrichment (R)” read 0.552.
`ACAAAAGUGCCUGGCAUCCACUACUGCUGCCUUUCAUUUAUAAUAAUAGCCCUUCCAUCUGGCAGUGGGGGUAGAAUACACUCUUGACAUUCUUGUCUCCUGCUUUAGAA`: “RBNS enrichment (R)” 0.428.

Block 5 — method: aptamer microarray, sandwich; molecule type: DNA with 2'F-ANA; sample: in vitro; tested at: 200 nM; together with: Cy3 exosite-II aptamer, 400 nM; direction: higher = stronger binding; strand: GGTTGGTGTGGTTGG
Target: Prothrombin, mature alpha-thrombin (F2, Homo sapiens, UniProt P00734)
Notes: whole 15-mer aptamer, many near background
`2'F-ANA at 1 2 3 5 8 10 12 13 14 15`: “mean fluorescence intensity” 50.3 a.u.
`2'F-ANA at 1 2 5 9 10 13 14 15`: “mean fluorescence intensity” 49.3 a.u.
`2'F-ANA at 11 13 14`: “mean fluorescence intensity” 204 a.u.
`2'F-ANA at 2 8 9 13 14 15`: “mean fluorescence intensity” 142 a.u.
`2'F-ANA at 3 9 11 12 14` — result for “mean fluorescence intensity”: 657 a.u.
Under “mean fluorescence intensity”, `2'F-ANA at 3 5 12 13 14 15` is recorded as 60.1 a.u.
`2'F-ANA at 1 6 7 8 9 10 11 12`: “mean fluorescence intensity” 67.1 a.u.
For `2'F-ANA at 1 2 3 5 7 8 12 14 15`, “mean fluorescence intensity” read 46.3 a.u.
`2'F-ANA at 1 7 8 9 14` — result for “mean fluorescence intensity”: 64.3 a.u.
`2'F-ANA at 1 3 4 5 6 12 13 15`: “mean fluorescence intensity” 76.5 a.u.
`2'F-ANA at 1 2 3 5 8 9 11 15` — result for “mean fluorescence intensity”: 124 a.u.
Under “mean fluorescence intensity”, `2'F-ANA at 1 2 5 6 10 12 14` is recorded as 44.4 a.u.
For `2'F-ANA at 5 6 10 12 14 15`, “mean fluorescence intensity” read 44.5 a.u.
`2'F-ANA at 4 5 7 9 12 15` — result for “mean fluorescence intensity”: 130 a.u.
Under “mean fluorescence intensity”, `2'F-ANA at 2 3 4 6 7 9 10 11 13 14` is recorded as 137 a.u.
`2'F-ANA at 2 4 6 7 8 11 13 14` — result for “mean fluorescence intensity”: 87.8 a.u.
Under “mean fluorescence intensity”, `2'F-ANA at 1 2 3 6 8 10 14` is recorded as 57.5 a.u.
Under “mean fluorescence intensity”, `2'F-ANA at 1 3 5 6 7 15` is recorded as 64.8 a.u.
`2'F-ANA at 3 5 6 7 10 14` — result for “mean fluorescence intensity”: 50.2 a.u.
`2'F-ANA at 1 4 5 6 7 8 10 13 14 15`: “mean fluorescence intensity” 45.6 a.u.
Under “mean fluorescence intensity”, `2'F-ANA at 1 2 3 6 7 8 10 11 12 13 14 15` is recorded as 69.4 a.u.
`2'F-ANA at 1 4 6 9 14` — result for “mean fluorescence intensity”: 46 a.u.
Under “mean fluorescence intensity”, `2'F-ANA at 1 2 4 6 7 10 13 14 15` is recorded as 48.1 a.u.

Block 6 — method: DHFR PCA, deep sequencing; sample: yeast; together with: (+)-ABA 1.4 µM; baseline: wild-type fitted maximum; direction: higher = stronger binding
Target: ABI1, truncated, D143A, DHFR fusion (Arabidopsis thaliana)
Notes: methotrexate growth selection, single substitutions
Starting sequence: PYL1, truncated, DHFR fusion (Arabidopsis thaliana); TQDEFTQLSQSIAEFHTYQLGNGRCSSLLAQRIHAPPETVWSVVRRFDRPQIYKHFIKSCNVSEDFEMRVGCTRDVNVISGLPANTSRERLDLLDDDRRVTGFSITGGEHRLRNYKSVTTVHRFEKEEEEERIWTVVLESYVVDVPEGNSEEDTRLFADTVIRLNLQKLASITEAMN; partner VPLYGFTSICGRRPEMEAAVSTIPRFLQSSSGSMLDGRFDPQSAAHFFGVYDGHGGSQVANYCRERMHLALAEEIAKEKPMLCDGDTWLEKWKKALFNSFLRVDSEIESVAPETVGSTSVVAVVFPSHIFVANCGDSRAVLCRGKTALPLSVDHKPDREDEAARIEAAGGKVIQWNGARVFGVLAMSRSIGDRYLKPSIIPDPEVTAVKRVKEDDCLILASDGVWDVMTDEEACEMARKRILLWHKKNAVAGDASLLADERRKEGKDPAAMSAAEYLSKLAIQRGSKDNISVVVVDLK
For `G148N`, “relative binding score” read 0.156%.
`V121D`: “relative binding score” -0.115%.
`F47D`: “relative binding score” -9.74%.
For `T17A`, “relative binding score” read 11.6%.
Under “relative binding score”, `Q31M` is recorded as 15.1%.
`I57V` — result for “relative binding score”: 48.6%.
`E64I` — result for “relative binding score”: 25.7%.
Under “relative binding score”, `T1Y` is recorded as 44.9%.
`V62R` — result for “relative binding score”: -4.37%.
`P146V` — result for “relative binding score”: 11.6%.
`W41Y` — result for “relative binding score”: -20.9%.
`L166T`: “relative binding score” 2.22%.
`E139Q` — result for “relative binding score”: 69.9%.
Under “relative binding score”, `S42I` is recorded as -0.94%.
`M176H` — result for “relative binding score”: 32.2%.

Further values, each from its own experiment
`PhoQ, residues 284 288 289 292 302 303 WVSSAF` has a fold induction of 23.4 (PhoP, residues 12 14 15 18 19 NFCKL (Escherichia coli, UniProt P23836); Sort-seq, measured: YFP reporter; E. coli; PhoQ-PhoP variant library, together with: 10 µM Mg2+; baseline: high Mg2+ state, higher = stronger signaling).
